Measured values from different studies.
Each numbered part is a random draw from the data of one study; scales do not carry over between parts.

Sample 1 — method: RNA Bind-n-Seq; form: RNA; sample: in vitro; concentration: 365 nM; relative to: no-protein control; direction: higher = stronger binding
Target: RNA binding protein fox-1 homolog 2, RRM domain, GST-SBP tag (RBFOX2, Homo sapiens, UniProt O43251-10, residues 100-194)
Notes: natural RNA segment, single round, ends assumed
Construct (chain): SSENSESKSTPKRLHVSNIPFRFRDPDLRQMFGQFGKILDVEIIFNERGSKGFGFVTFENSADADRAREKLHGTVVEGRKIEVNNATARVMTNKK
`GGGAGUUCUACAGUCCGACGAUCGGCCAAGCUGGUCACAAGUGGUCACUUACUCUUGCCAUUCUUCAUGAACCAAACCAACUGUGUGACUGUCUGAUGUGCCACCUCACUCAGAGGGAAGCUCUAACAUUGCCUGGAAUUCUCGGGUGCCAA` — result for “RBNS enrichment (R)”: 0.243.
`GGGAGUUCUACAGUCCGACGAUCAUUUUCAAAGAAAGUAAUGUUGUUAAAUGGGGCGAAAUAAGAAGUUAAAUUUGAAAGUGAAUGUGUUCAAAUGAAAGGUUUGAUAAUUGCAUCUGUUACUACUUAGUUUCUGGAAUUCUCGGGUGCCAA`: “RBNS enrichment (R)” 2.82.
`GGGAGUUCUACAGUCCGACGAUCGGGGGCCUUGAGUGCCUGGCCAGGUGGCCCUCCACGUGAGGUCAUGGUCACAGCAUGGAGGCCUUGAGAGCCUGGCCAGGUGGCCCUCCAUGUGAGGUUGUGGUCACAGCUGGAAUUCUCGGGUGCCAA` — result for “RBNS enrichment (R)”: 1.67.
For `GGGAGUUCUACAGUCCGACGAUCUGUAUUGAUGUCAACUCUGGUGCCUUAGAAGUUAGUAGUUUGGGAACCUAUCUGUAAAAUCAGAUGUUUUUUCUUUGUAGAGAAGGAUUUCUGGUGCUUUUGCUUACUAAUGGAAUUCUCGGGUGCCAA`, “RBNS enrichment (R)” read 0.419.
`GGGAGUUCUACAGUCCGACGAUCUGGAGCCCAGGCGAGGGGGACGGCAAGGGCCUGUCUUUGUGCUCUGCCCCACCUAGCCUGGGCAGCAGGGCUGCCAAGGUCAGAAUGGCCUGGCUAGGAGCCCUUCAGGCUGGAAUUCUCGGGUGCCAA` — result for “RBNS enrichment (R)”: 0.283.

Sample 2 — method: Spec-seq; form: double-stranded DNA, one strand shown; sample: in vitro; concentration: not given; notes: whole probe, mean of replicates; relative to: not given; direction: lower = stronger binding
Target: POU, POU domain (Salpingoeca helianthica)
Construct (chain): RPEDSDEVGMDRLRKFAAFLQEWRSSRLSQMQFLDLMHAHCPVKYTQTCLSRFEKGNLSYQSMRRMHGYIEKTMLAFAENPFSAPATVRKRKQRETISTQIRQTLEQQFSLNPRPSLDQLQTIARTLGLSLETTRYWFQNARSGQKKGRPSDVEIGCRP
Under “relative binding energy”, `GAGTCGTCTCGTCAGCACGTCCTAATCCGTAGAGCACTCAGGTC` is recorded as 0.833 ln ratio.
For `GAGTCGTCTCGTCAGCACATGCCATTCCGTAGAGCACTCAGGTC`, “relative binding energy” read 1.13 ln ratio.
For `GAGTCGTCTCGTCAGCACATGCTAGTCCGTAGAGCACTCAGGTC`, “relative binding energy” read 1.19 ln ratio.
`GAGTCGTCTCGTCAGCACCTAGTAATCCGTAGAGCACTCAGGTC`: “relative binding energy” 0.289 ln ratio.

Sample 3 — method: protein-binding microarray; form: double-stranded DNA, one strand shown; sample: in vitro; concentration: 2200 nM top; notes: 60-bp whole probe; with: salmon DNA 0.4 mg/ml; relative to: random background probes; direction: higher = stronger binding
Target: Interferon regulatory factor 7, full length, phosphomimetic (IRF7, Homo sapiens, UniProt Q92985, residues 1-503, S471D/S472D/S475D/S476D/S477D/S483D/S484D/S487D)
UniProt Q92985, sequence (whole entry, unmodified, looked up): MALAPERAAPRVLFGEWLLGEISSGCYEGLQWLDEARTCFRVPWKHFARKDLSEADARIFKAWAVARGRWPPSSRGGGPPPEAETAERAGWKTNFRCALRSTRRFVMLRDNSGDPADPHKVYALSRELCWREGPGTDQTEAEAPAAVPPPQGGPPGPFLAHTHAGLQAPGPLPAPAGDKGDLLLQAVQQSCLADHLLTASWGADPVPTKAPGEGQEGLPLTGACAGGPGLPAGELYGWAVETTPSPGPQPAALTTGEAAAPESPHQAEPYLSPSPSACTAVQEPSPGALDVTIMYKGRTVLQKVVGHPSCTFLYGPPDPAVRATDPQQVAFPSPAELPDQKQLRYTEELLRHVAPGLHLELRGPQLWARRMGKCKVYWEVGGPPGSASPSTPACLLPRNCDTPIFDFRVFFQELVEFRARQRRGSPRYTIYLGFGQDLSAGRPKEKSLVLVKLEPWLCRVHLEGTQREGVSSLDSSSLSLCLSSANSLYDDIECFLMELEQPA
`GCCTAGCACTTTGATCTCAGTCTCGATTAGTGCTAGGTCTTGATTCGCTTGACGCTGCTG`: “fitted relative affinity” 0.799 z-score.
`GCCTAGCACGACGCTCTCAGTTTCGAGACGTGCTAGGTCTTGATTCGCTTGACGCTGCTG` — result for “fitted relative affinity”: 3.64 z-score.
`GCCTAGCACGACGAACTGAGTTTCTAGACGTGCTAGGTCTTGATTCGCTTGACGCTGCTG`: “fitted relative affinity” 0.559 z-score.

Further values, each from its own experiment
`PhoQ, residues 284 288 289 292 302 303 DDMDFR` has a fold induction of 0.639 (PhoP, residues 12 14 15 18 19 NNFVT (Escherichia coli, UniProt P23836); Sort-seq, item: YFP reporter; E. coli; PhoQ-PhoP variant library, with: 10 µM Mg2+; relative to: high Mg2+ state, higher = stronger signaling).

For quick reference, copied from above (sample 1):
For `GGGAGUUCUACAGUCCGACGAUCUGUAUUGAUGUCAACUCUGGUGCCUUAGAAGUUAGUAGUUUGGGAACCUAUCUGUAAAAUCAGAUGUUUUUUCUUUGUAGAGAAGGAUUUCUGGUGCUUUUGCUUACUAAUGGAAUUCUCGGGUGCCAA`, “RBNS enrichment (R)” read 0.419.
